Measurements collected from several papers.
± gives the spread as reported.
Cell line: human neutrophils

Substance = CC1=NN(CC(=O)Nc2ccc(Br)cc2)C(=O)CC1c1ccccc1 (racemic); assay = calcium mobilization, agonist; measurement = EC50; value = 1400 ± 380 nM
Substance = Cc1nn(CC(=O)Nc2ccc(Br)cc2)c(=O)c(N)c1-c1cc[nH]n1; assay = calcium flux, agonist; measurement = EC50; value = 11800 ± 2400 nM
Substance = C[C@H](CCC(=O)O)[C@H]1CC[C@H]2[C@@H]3CC[C@@H]4C[C@H](O)CC[C@]4(C)[C@H]3C[C@H](O)[C@]12C; assay = calcium mobilization; setting = 30 min, added: fMLF 5 nM; measurement = IC50; value = 32.6 ± 3.3 µM
Substance = COc1ccccc1C1C(C(=O)c2ccc(C)cc2)=C(O)C(=O)N1CC(C)O (stereo not drawn); assay = adhesion to T84 cells; setting = 50 µM, added: fMLF 10 nM; measurement = adhesion inhibition; value = inactive
Substance = COc1cccc(Cc2cc(C)nn([C@@H](C)C(=O)Nc3ccc(Br)cc3)c2=O)c1; assay = calcium mobilization, agonist; measurement = EC50; value = 4900 nM
Substance = (+)-episesamin; assay = calcium flux, agonist; measurement = EC50; value = 38100 ± 4200 nM
Substance = COc1cccc(-c2cc(=O)c3ccccc3o2)c1N; assay = inhibitor, Western blot; setting = 50 µM, 20 min pretreatment, added: plasminogen 1 µM; measurement = ERK1/2 phosphorylation; value = inhibited
Substance = COc1ccc(C2(CNC(=O)[C@](C)(Cc3c[nH]c4ccccc34)NC(=O)Nc3ccc([N+](=O)[O-])cc3)CCCCC2)nc1; assay = calcium mobilisation, agonist; setting = added: 2.5 mM probenecid; measurement = EC50; value = 210 ± 67 nM
Substance = CCC[C@H](C(=O)Nc1ccc(Br)cc1)n1nc(C)cc(Cc2cccc(OC)c2)c1=O; assay = calcium mobilization, agonist; measurement = EC50; value = 930 nM
Substance = COc1ccc(Cc2c(C)c(C)nn(CC(=O)Nc3ccc(Br)cc3)c2=O)cc1; assay = chemotaxis, agonist; setting = 1 h; measurement = EC50; value = 510 ± 110 nM
Substance = CC1(C)CC[C@]2(C(=O)O)CC[C@]3(C)C(=CC[C@@H]4[C@@]5(C)CC[C@H](O)C(C)(C)[C@@H]5CC[C@]43C)[C@@H]2C1; assay = calcium flux, inhibitor; setting = added: fMLF; measurement = IC50; value = 1.5 µM
Substance = C[C@@](Cc1c[nH]c2ccccc12)(NC(=O)Nc1ccc([N+](=O)[O-])cc1)C(=O)NCC1(c2ccccn2)CCCCC1; assay = calcium mobilisation, agonist; setting = without probenecid; measurement = EC50; value = 910 ± 260 nM

Repeated from above:
Substance = COc1cccc(-c2cc(=O)c3ccccc3o2)c1N; assay = inhibitor, Western blot; setting = 50 µM, 20 min pretreatment, added: plasminogen 1 µM; measurement = ERK1/2 phosphorylation; value = inhibited
